Results collected from several papers.
Compare with care: the assays were run in different laboratories. “And” joins repeats or separate records; there may be more than shown. ± marks the error that the study gave. Converted amounts (≈) assume the structure as drawn.

The IC50 of `CN1CCN(S(=O)(=O)c2cc([N+](=O)[O-])ccc2N(CCOS(C)(=O)=O)CCOS(C)(=O)=O)CC1` is reported as 0.82 µM (Homo sapiens; cell viability, resazurin or CellTiter-Glo; sample B BCP-ALL PDX cells, ex vivo; 48 h).
With `CCCCCCCCCCCc1c([N+](=O)[O-])oc2ccc3ccccc3c12` the MIC90 was > 32 µg/mL (Mycobacterium marinum; REMA; ATCC BAA-535).
With `COC(=O)N[C@H](C(=O)N1CCC[C@H]1c1ncc(-c2ccc(-c3ccc(-c4cnc([C@@H]5CCCN5C(=O)[C@@H](NC(=O)OC)C(C)C)[nH]4)cc3)cc2)[nH]1)C(C)C` the combination index was 0.63 (Hepatitis C virus; replicon cells; 75% effect level, added: IFN-alpha, ratio 1:1).
`Cn1cc(NC(=O)c2cc(NC(=O)CN=C(N)N)cn2C)cc1C(=O)NCCC(=N)N` gave a cell perimeter of 7.24 µm and 7.8 µm and 7.45 µm (Bacillus subtilis; bacterial cytological profiling; ATCC 6633; concentration not given).
`Cl.N=C(CC(O)c1cc2c(F)cc(F)cc2c2cc(C(F)(F)F)ccc12)Nc1ccc(Br)cc1` (centres unmarked) gave a cure rate of 100% (Plasmodium berghei; 4-day Peters test; ANKA, mouse; oral, 50 mg/kg, four doses).
`CC[C@H](C)[C@H](NC(=O)[C@H](C)NC(=O)[C@H](CCCCN)NC(=O)[C@H](CC(C)C)NC(=O)[C@H](C)NC(=O)[C@@H](NC(=O)[C@H](Cc1c[nH]cn1)NC(=O)[C@H](CC(C)C)NC(=O)[C@@H](NC(=O)[C@@H](NC(=O)[C@H](CCCCN)NC(=O)[C@H](C)NC(=O)[C@H](C)NC(=O)[C@H](CO)NC(=O)[C@H](CCCCN)NC(=O)[C@H](Cc1ccccc1)NC(=O)[C@@H](NC(=O)[C@H](CCCCN)NC(=O)[C@H](CC(C)C)NC(=O)[C@H](Cc1ccccc1)NC(=O)[C@H](CO)NC(=O)[C@H](CCCCN)NC(=O)[C@H](Cc1c[nH]c2ccccc12)NC(=O)[C@H](CCCCN)NC(C)=O)[C@@H](C)O)[C@@H](C)O)C(C)C)[C@@H](C)O)C(=O)N[C@@H](CO)C(=O)N[C@@H](CO)C(N)=O` — result for “MIC geometric mean”: 16 µg/mL (≈ 5.45 µM) (Klebsiella pneumoniae; ATCC 1705).
Under “minimum microfilaria count”, `C[C@H]1COCCN1c1nc(NCc2cccnc2C(F)(F)F)c2cccnc2n1` is recorded as 0 microfilariae per mouse (Brugia malayi; SCID mouse, peritoneal cavity; dose not given, 6 weeks post-treatment, dosing x14d).
`CCCCN(CCCC)CC(O)c1cc(Cl)cc2c1-c1ccc(Cl)cc1/C2=C/c1ccc(Cl)cc1` (centres unmarked) — result for “mean survival time”: > 30 days (Plasmodium berghei; Peters test; ANKA, mice; oral, 4 x 30 mg/kg).
`COc1cc2ccc3oc([N+](=O)[O-])cc3c2cc1OC` gave an MIC90 of 0.016 µg/mL (≈ 0.0586 µM) (Mycobacterium marinum; REMA; ATCC BAA-535).
`CC1(C)SC2C(NC(=O)C(NC(=O)C3=C(O)C(Cc4ccccc4)NC3=O)c3ccccc3)C(=O)N2C1C(=O)O` (centres unmarked) gave an MIC of 12.5 µg/mL (Escherichia coli; broth microdilution; Keio mutant JW5086-3; 18 h, ferrienterobactin permease gene).
`S=C=NCCc1ccccc1`: “maximum germination stimulation” 102% (Phelipanche ramosa; seed germination, stimulant; seeds; 1 µM; baseline: (±)-GR24).
`CS(=O)(=O)CCCn1c(Cn2c(=O)n(CC(F)(F)F)c3ccncc32)cc2cc(Cl)ccc21`: “LS mean difference vs placebo” -0.3 log10 copies/mL (respiratory syncytial virus; RT-qPCR; hospitalized infants 1-24 months, nasal swab; oral, 6, 4.5 or 3 mg/kg daily, day 5, mid dose by age cohort; baseline: placebo).
The IC50 of `COC(=O)[C@@H](N)COP1(=O)CO[C@@H](Cn2cnc3c(N)ncnc32)CO1` (some centres unmarked) is reported as 0.5 µM (human cytomegalovirus; viral replication).
`C[C@@H]1CC[C@H]2[C@@H](C)C(=O)O[C@@H]3O[C@@]4(C)CC[C@@H]1[C@]32OO4` has a parasitemia reduction of 99% (Plasmodium berghei; Peters suppressive test; ANKA, infected mice; oral, 4 x 30 mg/kg, day 4; baseline: untreated control).
With `O=C(NC(=O)c1c(F)cccc1F)Nc1ccc(Cl)cc1` the mortality was 56.7 ± 5.8% (Plutella xylostella; leaf dipping; 50 mg/L, 96 h).
For `C[C@H](NC(=O)[C@H](CCCNC(=N)N)NC(=O)[C@H](Cc1c[nH]c2ccccc12)NC(=O)[C@H](CCCNC(=N)N)NC(=O)[C@H](Cc1c[nH]c2ccccc12)NC(=O)[C@H](Cc1c[nH]c2ccccc12)NC(=O)[C@H](Cc1c[nH]c2ccccc12)NC(=O)[C@H](CCCNC(=N)N)NC(=O)[C@H](Cc1c[nH]c2ccccc12)NC(=O)[C@@H](N)CCCNC(=N)N)C(N)=O`, the MIC was 8 µM (Candida albicans; broth microdilution; 56467, RPMI 1640-MOPS; 48 h, 30 °C).
The mortality of `CNC(=O)c1cc(Cl)cc(C)c1NC(=O)c1cc(Br)nn1-c1ncccc1Cl` is reported as 92.3% (Plutella xylostella; larvicidal activity; Raphanus sativus open field; 25 ppm, 168 h, wettable granule formulation).
`COC(=O)[C@]1(C)CC[C@]2(C)CC[C@]3(C)C4=CC=C5C(=CC(=O)C(O)=C5C)[C@]4(C)CC[C@@]3(C)[C@@H]2C1` gave a fluorescein ingestion of -47.3% (Drosophila melanogaster; fluorescence; liquid food, 40 µg/mL, first instar larvae; baseline: solvent).
With `CCCCc1ccc(CNc2nc(N(C)C)nc(N(C)C)c2/N=N/c2ccc(Cl)cc2)cc1` the mortality was 83.3% (Plutella xylostella; leaf dipping; 50 mg/L).
`CSCC[C@H](NC(=O)[C@H](CCCCN)NC(=O)[C@H](CCSC)NC(=O)[C@H](CCCCN)NC(=O)[C@H](CC(C)C)NC(=O)[C@H](CC(C)C)NC(=O)[C@H](CCCNC(=N)N)NC(=O)[C@H](CC(=O)O)NC(=O)[C@H](CCCCN)NC(=O)[C@H](Cc1c[nH]c2ccccc12)NC(=O)[C@H](Cc1ccc(O)cc1)NC(=O)[C@H](Cc1ccccc1)NC(=O)[C@H](CCCNC(=N)N)NC(=O)[C@@H]1CCCN1C(=O)[C@@H](NC(=O)[C@H](CCCNC(=N)N)NC(=O)[C@@H](N)CO)C(C)C)C(=O)N[C@@H](C)C(=O)O` has an MBC of 128 µg/mL (Micrococcus luteus; NCTC 2665).
The MIC90 of `COc1ccc2c(ccc3oc([N+](=O)[O-])cc32)c1` is reported as 0.016 µg/mL (≈ 0.0658 µM) (Mycobacterium marinum; REMA; ATCC BAA-535).
The fold enrichment of `Nc1ncnc2c1ncn2[C@@H]1O[C@@H]2COP(=O)(O)O[C@H]3[C@@H](O)[C@H](n4cnc5c(=O)[nH]cnc54)O[C@@H]3COP(=O)(O)O[C@H]2[C@H]1O` is reported as 5.05 (Zika virus; RNA sequencing, item: communication, cell-cell, R-HSA-1500931; HFF-1 cells; concentration not given, downregulated pathway; baseline: ZIKV-infected untreated cells).
For `Cn1c(=O)ccc2ccc(F)c(CCNC[C@H]3CN(c4cnc5c(n4)NC(=O)CO5)C(=O)O3)c21`, the MIC50 was < 0.015 µg/mL (Neisseria gonorrhoeae).
Under “mean survival time”, `Cl.N/C(CC(O)c1cc2c(F)cc(F)cc2c2cc(C(F)(F)F)ccc12)=N\c1ccc(F)cc1` (centres unmarked) is recorded as 28 days (Plasmodium berghei; Peters test; ANKA, mice; oral, 4 x 10 mg/kg).
For `CCc1c(Cl)c(O)c(Cl)c(O)c1C(=O)O[C@H]1[C@H](O)[C@H](OC)[C@H](OC/C2=C\C=C\C[C@H](O)/C(C)=C/[C@H](CC)[C@@H](O[C@@H]3OC(C)(C)[C@@H](OC(=O)C(C)C)[C@H](O)[C@@H]3O)/C(C)=C/C(C)=C/C[C@@H]([C@@H](C)O)OC2=O)O[C@@H]1C`, antibacterial activity read “inactive” (Gram-negative bacteria; concentration not given).
For `CC[C@H](C)[C@H]1O[C@]2(CC[C@@H]1C)C[C@@H]1C[C@@H](C/C=C(\C)[C@@H](O[C@H]3C[C@H](OC)[C@@H](O[C@H]4C[C@H](OC)[C@@H](O)[C@H](C)O4)[C@H](C)O3)[C@@H](C)/C=C/C=C3\CO[C@@H]4[C@H](O)C(C)=C[C@@H](C(=O)O1)[C@]34O)O2`, the motility was 92 ± 7.2% (Brugia malayi; adult male worms; 3 µM, 24 h).
`O=C(NCCc1ncc(C(F)(F)F)cc1Cl)c1ccccc1C(F)(F)F` gave an inhibition of 64 ± 1.3% (Botryosphaeria dothidea; fungal growth, inhibitor; 50 µg/mL).
For `COc1cc[nH]c1/C=C1\C(=O)Nc2ccc([N+](=O)[O-])c(N3CC[C@@H](O)C3)c21`, “fold decrease in protein level” read ~2 fold (human cytomegalovirus; western blot densitometry, item: IE2-86 and IE2-60; HFF, AD169; 0.01 µM; baseline: DMSO).
The inhibition of `O=C(NNc1cc(F)ccc1F)c1nnc(C23CC4CC(CC(C4)C2)C3)o1` is reported as 100% (Botryosphaeria dothidea; fungal growth, inhibitor; 50 µg/mL).
For `CO/C1=C\C(C)=C\[C@@H](C)[C@@H](O)[C@@H](C)C/C(C)=C/C=C/[C@H](OC)[C@@H]([C@@H](C)[C@@H](O)[C@H](C)[C@@]2(O)C[C@@H](O)[C@H](C)[C@@H](C(C)C)O2)OC1=O`, phagosome acidification read “no effect” (Apostichopus japonicus; BCECF-AM flow cytometry; coelomocytes; concentration not given, 24 and 48 h).
The EC50 of `Nc1ccn(C[C@@H](CO)OCP(=O)(O)O)c(=O)n1` is reported as 1.2 µM (herpes simplex virus 1; viral cytopathicity; HEL, KOS TK-deficient acyclovir-resistant).
The MBC of `N=C(N)NCCC[C@H](NC(=O)[C@H](Cc1c[nH]c2ccccc12)NC(=O)[C@@H](N)CCCNC(=N)N)C(=O)N[C@@H](Cc1c[nH]c2ccccc12)C(=O)N[C@@H](Cc1ccccc1)C(=O)N[C@@H](CCC(N)=O)C(=O)N[C@@H](Cc1ccccc1)C(=O)N[C@@H](CCC(N)=O)C(=O)N[C@@H](Cc1ccccc1)C(=O)N[C@@H](CCCCN)C(N)=O` is reported as 8.8 µM (Bacillus subtilis).

For quick reference, copied from above:
For `CCc1c(Cl)c(O)c(Cl)c(O)c1C(=O)O[C@H]1[C@H](O)[C@H](OC)[C@H](OC/C2=C\C=C\C[C@H](O)/C(C)=C/[C@H](CC)[C@@H](O[C@@H]3OC(C)(C)[C@@H](OC(=O)C(C)C)[C@H](O)[C@@H]3O)/C(C)=C/C(C)=C/C[C@@H]([C@@H](C)O)OC2=O)O[C@@H]1C`, antibacterial activity read “inactive” (Gram-negative bacteria; concentration not given).
For `CC[C@H](C)[C@H]1O[C@]2(CC[C@@H]1C)C[C@@H]1C[C@@H](C/C=C(\C)[C@@H](O[C@H]3C[C@H](OC)[C@@H](O[C@H]4C[C@H](OC)[C@@H](O)[C@H](C)O4)[C@H](C)O3)[C@@H](C)/C=C/C=C3\CO[C@@H]4[C@H](O)C(C)=C[C@@H](C(=O)O1)[C@]34O)O2`, the motility was 92 ± 7.2% (Brugia malayi; adult male worms; 3 µM, 24 h).
`O=C(NCCc1ncc(C(F)(F)F)cc1Cl)c1ccccc1C(F)(F)F` gave an inhibition of 64 ± 1.3% (Botryosphaeria dothidea; fungal growth, inhibitor; 50 µg/mL).
